Published values of several laboratories.
Each line is one published result; not all experiments were run side by side.
Matrix: plasma

Compound	system	setting	AUC(0-inf)
CN1CCC[C@]1(C)/C=C/S(=O)(=O)NC(=O)Nc1c2c(cc3c1CCC3O)CCC2 (stereo partly drawn)	human	oral, 50 mg twice daily of parent drug, day 14, metabolite of dosed drug	964000 ng·h/mL
Cc1cc(F)ccc1-c1cc(N2C[C@H]3COC(O)CN3C[C@H]2CO)ncc1N(C)C(=O)C(C)(C)c1cc(C(F)(F)F)cc(C(F)(F)F)c1 (stereo partly drawn)	human	oral, 120 mg, geometric mean	2450 ng·h/mL
CN1CCC[C@]1(C)/C=C/S(=O)(=O)NC(=O)Nc1c2c(cc3c1C(O)CC3)CCC2 (stereo partly drawn)	human	oral, 12.5 mg twice daily of parent drug, day 14, metabolite of dosed drug	97300 ng·h/mL
CCCCCCCCCCCCCCCC(=O)N[C@@H](CCCCN)C(=O)N[C@@H](CCCCN)C(=O)N[C@@H](CO)C(=O)N[C@@H](CCCNC(=N)N)C(=O)N[C@@H](C)C(=O)N[C@@H](CC(C)C)C(=O)N[C@@H](Cc1ccccc1)C(N)=O	human patients	intravenous, 0.5 mg/kg over 2 h	7440 ng·h/mL
N#Cc1cc(NC(=O)C2c3ccccc3C(=O)N(CC(F)(F)F)C2c2ccc[n+]([O-])c2)ccc1F (stereo not drawn)	human	600 mg, fed, median	33000 ng·h/mL
CN(C(=O)C(C)(C)c1cc(C(F)(F)F)cc(C(F)(F)F)c1)c1cnc(N2C[C@H]3COCCN3C[C@H]2CO)cc1-c1ccc(F)cc1CO	human	oral, 120 mg, geometric mean	1320 ng·h/mL
CC(C)C[C@H](NC(=O)[C@H](CCCN)NC(=O)CNC(=O)[C@@H](NC(=O)[C@H](C)NC(=O)[C@@H]1CSCSC[C@H](NC(=O)CC[C@H](N)C(=O)O)C(=O)N[C@@H](CC(N)=O)C(=O)N[C@@H]([C@@H](C)O)C(=O)N[C@@H](C)C(=O)N[C@@H]([C@@H](C)O)C(=O)N1)[C@@H](C)O)C(=O)N[C@@H](C)C(=O)N[C@@H](CCC(=O)O)C(=O)N[C@@](C)(Cc1ccccc1)C(=O)N[C@@H](CC(C)C)C(=O)N[C@H](C(=O)N[C@@H](CCCNC(=N)N)C(=O)N[C@@H](CO)C(=O)N[C@@H](CO)C(=O)N[C@@H](CC(N)=O)C(=O)N(C)[C@@H](CC(N)=O)C(=O)N[C@@H](Cc1ccccc1)C(=O)NCC(=O)N1CCC[C@H]1C(=O)N[C@@H](CCCCNC(=O)CC[C@H](NC(=O)CC[C@H](NC(=O)CCCCCCCCCCCCCCCCCCC(=O)O)C(=O)O)C(=O)O)C(=O)N[C@@H](CC(C)C)C(=O)N1CCC[C@H]1C(=O)N1CCC[C@H]1C(=O)N[C@H](C(=O)N[C@@H](CCC(=O)O)C(=O)N[C@H](C(=O)NCC(=O)N[C@@H](CO)C(=O)N[C@@H](CC(N)=O)C(=O)N[C@H](C(=O)N[C@@H](Cc1ccc(O)cc1)C(N)=O)[C@@H](C)O)C(C)C)[C@@H](C)O)C(C)C	healthy human	subcutaneous, 12 mg	648000 ng·h/mL
CN1CCC[C@]1(C)/C=C/S(=O)(=O)NC(=O)Nc1c2c(cc3c1CCC3)CC=C2	human	oral, 50 mg twice daily of parent drug, day 14, metabolite of dosed drug	747000 ng·h/mL
CC1(C)CC[C@]2(NC(=O)C(C)(F)F)CC[C@]3(C)[C@H](C(=O)C=C4[C@@]5(C)C=C(C#N)C(=O)C(C)(C)[C@@H]5CC[C@]43C)[C@@H]2C1	human	oral, dose not given, geometric least-squares mean, added: efavirenz	712 ng·h/mL

A few entries again:
Compound	system	setting	AUC(0-inf)
Cc1cc(F)ccc1-c1cc(N2C[C@H]3COC(O)CN3C[C@H]2CO)ncc1N(C)C(=O)C(C)(C)c1cc(C(F)(F)F)cc(C(F)(F)F)c1 (stereo partly drawn)	human	oral, 120 mg, geometric mean	2450 ng·h/mL
